Measurements from different studies.
Every numbered part comes from another study and shows a few of its results, in no order. “And” joins repeats or separate records; there may be more than shown.
Chain of UniProt Q12852 (whole entry, looked up): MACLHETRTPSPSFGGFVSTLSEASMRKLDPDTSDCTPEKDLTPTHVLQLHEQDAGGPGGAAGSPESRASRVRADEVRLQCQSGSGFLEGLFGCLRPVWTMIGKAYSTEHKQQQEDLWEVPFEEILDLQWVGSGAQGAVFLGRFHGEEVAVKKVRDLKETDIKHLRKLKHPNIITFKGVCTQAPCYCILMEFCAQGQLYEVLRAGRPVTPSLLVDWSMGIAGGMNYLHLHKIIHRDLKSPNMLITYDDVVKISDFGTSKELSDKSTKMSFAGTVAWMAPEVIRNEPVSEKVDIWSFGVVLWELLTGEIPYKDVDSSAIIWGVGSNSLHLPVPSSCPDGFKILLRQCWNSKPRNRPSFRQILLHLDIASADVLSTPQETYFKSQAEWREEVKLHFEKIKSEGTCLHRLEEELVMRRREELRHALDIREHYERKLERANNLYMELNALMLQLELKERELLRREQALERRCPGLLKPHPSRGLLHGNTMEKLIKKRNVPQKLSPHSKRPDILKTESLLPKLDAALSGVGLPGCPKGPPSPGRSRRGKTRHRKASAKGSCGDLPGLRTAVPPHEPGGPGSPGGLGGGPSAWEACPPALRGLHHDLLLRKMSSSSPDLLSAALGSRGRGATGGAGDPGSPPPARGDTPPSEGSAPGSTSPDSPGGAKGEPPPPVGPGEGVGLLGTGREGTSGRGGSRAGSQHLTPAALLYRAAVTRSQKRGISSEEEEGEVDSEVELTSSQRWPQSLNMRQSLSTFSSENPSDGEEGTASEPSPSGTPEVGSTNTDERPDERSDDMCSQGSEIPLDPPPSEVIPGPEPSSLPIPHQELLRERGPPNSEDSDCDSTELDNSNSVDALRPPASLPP
Chain of UniProt Q15835 (whole entry, looked up): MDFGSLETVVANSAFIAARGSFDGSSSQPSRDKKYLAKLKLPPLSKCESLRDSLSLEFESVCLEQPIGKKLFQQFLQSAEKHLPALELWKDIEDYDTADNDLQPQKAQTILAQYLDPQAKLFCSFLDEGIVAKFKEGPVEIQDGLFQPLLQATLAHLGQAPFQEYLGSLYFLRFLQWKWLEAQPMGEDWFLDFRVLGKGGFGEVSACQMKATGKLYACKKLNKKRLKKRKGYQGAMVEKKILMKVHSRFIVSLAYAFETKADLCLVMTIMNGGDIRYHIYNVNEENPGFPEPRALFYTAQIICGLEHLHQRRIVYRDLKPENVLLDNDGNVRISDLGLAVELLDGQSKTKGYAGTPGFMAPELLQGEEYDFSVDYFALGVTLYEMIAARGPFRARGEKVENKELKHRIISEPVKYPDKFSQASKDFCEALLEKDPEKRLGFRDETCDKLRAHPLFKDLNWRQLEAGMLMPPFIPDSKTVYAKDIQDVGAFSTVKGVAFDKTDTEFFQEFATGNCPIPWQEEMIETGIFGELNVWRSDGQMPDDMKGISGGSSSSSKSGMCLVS
Chain of UniProt Q9Y6M4 (whole entry, looked up): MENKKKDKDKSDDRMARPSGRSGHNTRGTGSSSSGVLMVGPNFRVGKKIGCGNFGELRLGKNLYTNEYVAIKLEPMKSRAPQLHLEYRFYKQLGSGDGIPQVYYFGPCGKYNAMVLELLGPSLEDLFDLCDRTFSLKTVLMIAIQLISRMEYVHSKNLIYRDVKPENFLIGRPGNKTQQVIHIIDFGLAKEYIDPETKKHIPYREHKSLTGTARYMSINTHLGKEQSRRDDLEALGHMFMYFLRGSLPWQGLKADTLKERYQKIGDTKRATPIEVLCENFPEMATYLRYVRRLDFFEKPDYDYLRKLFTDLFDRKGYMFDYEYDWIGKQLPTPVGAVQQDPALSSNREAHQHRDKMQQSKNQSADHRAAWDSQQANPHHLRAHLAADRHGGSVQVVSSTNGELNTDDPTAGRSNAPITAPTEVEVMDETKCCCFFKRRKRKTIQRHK
Chain of UniProt Q13555 (whole entry, looked up): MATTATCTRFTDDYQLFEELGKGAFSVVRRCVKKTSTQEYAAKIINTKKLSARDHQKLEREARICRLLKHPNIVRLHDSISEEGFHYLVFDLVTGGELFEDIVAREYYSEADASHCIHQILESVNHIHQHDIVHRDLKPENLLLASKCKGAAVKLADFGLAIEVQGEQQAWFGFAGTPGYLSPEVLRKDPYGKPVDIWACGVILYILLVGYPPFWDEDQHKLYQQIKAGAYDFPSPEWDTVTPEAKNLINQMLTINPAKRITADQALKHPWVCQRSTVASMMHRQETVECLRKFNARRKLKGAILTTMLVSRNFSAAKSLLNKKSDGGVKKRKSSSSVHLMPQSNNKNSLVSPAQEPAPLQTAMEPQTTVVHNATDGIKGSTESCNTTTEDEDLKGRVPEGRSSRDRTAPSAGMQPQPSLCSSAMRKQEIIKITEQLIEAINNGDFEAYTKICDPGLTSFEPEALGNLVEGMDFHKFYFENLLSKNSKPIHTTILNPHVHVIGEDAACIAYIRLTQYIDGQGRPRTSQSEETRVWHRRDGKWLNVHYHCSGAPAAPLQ
Chain of UniProt P00519 (whole entry, unmodified, looked up): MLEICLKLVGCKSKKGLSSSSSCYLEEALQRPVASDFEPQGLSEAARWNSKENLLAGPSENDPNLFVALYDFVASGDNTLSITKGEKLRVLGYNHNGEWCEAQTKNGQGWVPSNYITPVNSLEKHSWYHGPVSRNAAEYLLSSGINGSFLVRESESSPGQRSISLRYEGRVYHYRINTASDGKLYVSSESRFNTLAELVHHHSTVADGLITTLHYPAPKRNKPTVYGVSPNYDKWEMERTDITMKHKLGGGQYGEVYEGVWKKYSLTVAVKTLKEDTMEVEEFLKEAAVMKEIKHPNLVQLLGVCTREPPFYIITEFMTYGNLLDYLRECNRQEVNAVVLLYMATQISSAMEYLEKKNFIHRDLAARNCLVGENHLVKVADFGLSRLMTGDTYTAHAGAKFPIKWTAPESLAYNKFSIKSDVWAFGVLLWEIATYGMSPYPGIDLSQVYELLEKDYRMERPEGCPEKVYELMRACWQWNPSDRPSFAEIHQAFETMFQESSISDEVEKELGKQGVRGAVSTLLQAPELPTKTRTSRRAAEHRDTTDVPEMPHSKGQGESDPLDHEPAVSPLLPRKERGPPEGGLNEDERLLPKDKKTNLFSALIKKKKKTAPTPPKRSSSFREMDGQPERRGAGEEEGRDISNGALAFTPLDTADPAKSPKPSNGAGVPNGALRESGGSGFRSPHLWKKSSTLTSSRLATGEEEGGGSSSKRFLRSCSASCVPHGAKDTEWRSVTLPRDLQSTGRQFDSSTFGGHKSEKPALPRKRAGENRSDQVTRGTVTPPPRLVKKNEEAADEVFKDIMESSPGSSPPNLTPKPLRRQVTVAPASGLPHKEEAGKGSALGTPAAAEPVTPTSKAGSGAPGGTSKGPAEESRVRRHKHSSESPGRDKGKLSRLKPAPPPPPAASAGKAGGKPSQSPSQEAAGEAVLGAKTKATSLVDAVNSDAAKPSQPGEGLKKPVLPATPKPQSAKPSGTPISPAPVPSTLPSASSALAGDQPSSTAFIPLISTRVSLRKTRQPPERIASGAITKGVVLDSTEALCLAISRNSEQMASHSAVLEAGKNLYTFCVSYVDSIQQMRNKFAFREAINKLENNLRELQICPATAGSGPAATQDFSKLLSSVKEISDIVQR
Chain of UniProt Q8IU85 (whole entry, looked up): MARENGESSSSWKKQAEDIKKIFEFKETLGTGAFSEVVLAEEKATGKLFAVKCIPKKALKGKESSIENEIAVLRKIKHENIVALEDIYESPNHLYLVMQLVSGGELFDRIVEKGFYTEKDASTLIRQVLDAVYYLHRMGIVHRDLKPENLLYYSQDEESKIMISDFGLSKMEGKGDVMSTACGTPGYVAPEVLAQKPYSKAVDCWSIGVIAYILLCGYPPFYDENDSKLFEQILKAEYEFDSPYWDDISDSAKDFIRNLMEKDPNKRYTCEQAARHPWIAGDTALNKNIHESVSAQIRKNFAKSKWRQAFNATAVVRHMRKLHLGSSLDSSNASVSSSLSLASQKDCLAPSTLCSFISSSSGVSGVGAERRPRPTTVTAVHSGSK
Chain of UniProt Q9UEE5 (whole entry, looked up): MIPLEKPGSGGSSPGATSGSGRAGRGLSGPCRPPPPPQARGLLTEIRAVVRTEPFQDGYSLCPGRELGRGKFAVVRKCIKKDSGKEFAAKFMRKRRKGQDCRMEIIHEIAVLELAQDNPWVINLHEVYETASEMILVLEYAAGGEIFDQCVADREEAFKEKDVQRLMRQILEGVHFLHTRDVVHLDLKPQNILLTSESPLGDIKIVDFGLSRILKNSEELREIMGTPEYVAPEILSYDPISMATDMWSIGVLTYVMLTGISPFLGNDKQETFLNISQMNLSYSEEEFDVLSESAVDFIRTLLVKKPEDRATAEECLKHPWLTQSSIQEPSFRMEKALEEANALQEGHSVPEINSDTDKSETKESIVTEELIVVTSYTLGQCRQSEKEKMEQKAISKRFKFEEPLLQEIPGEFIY
Chain of UniProt P37023 (whole entry, looked up): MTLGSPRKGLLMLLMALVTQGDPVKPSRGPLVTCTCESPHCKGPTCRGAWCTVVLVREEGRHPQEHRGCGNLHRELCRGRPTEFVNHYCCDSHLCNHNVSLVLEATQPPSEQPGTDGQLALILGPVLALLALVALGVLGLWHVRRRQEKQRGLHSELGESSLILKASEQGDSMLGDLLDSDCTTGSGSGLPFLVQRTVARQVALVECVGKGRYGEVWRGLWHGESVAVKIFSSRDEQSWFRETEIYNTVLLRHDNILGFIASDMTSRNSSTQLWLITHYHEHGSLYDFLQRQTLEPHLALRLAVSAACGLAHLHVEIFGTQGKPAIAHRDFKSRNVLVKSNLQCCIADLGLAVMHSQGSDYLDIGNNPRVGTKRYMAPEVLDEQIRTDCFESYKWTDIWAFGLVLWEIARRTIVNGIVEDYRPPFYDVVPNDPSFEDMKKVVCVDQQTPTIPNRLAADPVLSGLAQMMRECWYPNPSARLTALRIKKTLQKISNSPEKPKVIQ

Set 1
Partner: H2BC15 (Homo sapiens, UniProt Q99877)
Method: cross-linking MS
Setting: hits only
Measurement: interaction screen
HMGA1 (Homo sapiens, UniProt P17096): cross-linked
H2BC18 (Homo sapiens, UniProt Q5QNW6): cross-linked
H2AC7 (Homo sapiens, UniProt P20671): cross-linked
H2AX (Homo sapiens, UniProt P16104): cross-linked
H2BC5 (Homo sapiens, UniProt P58876): cross-linked
H2BC12L (Homo sapiens, UniProt P57053): cross-linked
H2AC12 (Homo sapiens, UniProt Q96KK5): cross-linked
H2AC11 (Homo sapiens, UniProt P0C0S8): cross-linked

Set 2
Compound: CC(=O)N1CCC(c2ccc(C(=O)NC(=N)N)cc2C(F)(F)F)CC1
Method: competition with immobilised ligand
Tested at: 1 µM
Measurement: remaining binding
Receptor-type tyrosine-protein kinase FLT3 (FLT3, Homo sapiens, UniProt P36888, F691L/ITD); cell-free assay: 80%
Phosphatidylinositol 4-phosphate 5-kinase type-1 gamma (PIP5K1C, Homo sapiens, UniProt O60331); cell-free assay: 100%
Calcium/calmodulin-dependent protein kinase type II subunit gamma (CAMK2G, Homo sapiens, UniProt Q13555); cell-free assay: 100%
Mitogen-activated protein kinase kinase kinase 12 (MAP3K12, Homo sapiens, UniProt Q12852); cell-free assay: 100%
Activin receptor type-1-like (ACVRL1, Homo sapiens, UniProt P37023); binding: 100%
5'-AMP-activated protein kinase catalytic subunit alpha-1 (PRKAA1, Homo sapiens, UniProt Q13131); cell-free assay: 97%
Rhodopsin kinase GRK1 (GRK1, Homo sapiens, UniProt Q15835); cell-free assay: 98%
Tyrosine-protein kinase ABL1, non-phosphorylated (ABL1, Homo sapiens, UniProt P00519, F317I); binding: 92%
Casein kinase I isoform gamma-3 (CSNK1G3, Homo sapiens, UniProt Q9Y6M4); cell-free assay: 100%
Dual specificity testis-specific protein kinase 1 (TESK1, Homo sapiens, UniProt Q15569); cell-free assay: 95%
Serine/threonine-protein kinase RIO1 (RIOK1, Homo sapiens, UniProt Q9BRS2); cell-free assay: 100%
Calcium/calmodulin-dependent protein kinase type 1D (CAMK1D, Homo sapiens, UniProt Q8IU85); cell-free assay: 95%
Serine/threonine-protein kinase 17A (STK17A, Homo sapiens, UniProt Q9UEE5); cell-free assay: 100%
Tyrosine-protein kinase FRK (FRK, Homo sapiens, UniProt P42685); cell-free assay: 100%
Mast/stem cell growth factor receptor Kit, autoinhibited (KIT, Homo sapiens, UniProt P10721); cell-free assay: 95%

Set 3
Species: human
Medium: microsomes or S9
Tested at: 2 µM
Time: 0.5 h
Measurement: remaining compound
Cc1ccc(Nc2c(-c3cc(Br)ccc3O)nc3ncccn23)c(C)c1: 52.9%
c1ccc(-c2ncn(CCn3nnc4ccccc43)c2-c2ccsc2)cc1: 3.5%
CCCNC1=Nc2ccccc2S(=O)(=O)N1CCC: 9.87%

Set 4
Cell line: mouse MPNST tumor cells
Method: high-content nuclear imaging
Refers to: cell number
Tested at: 10 µM
Time: 12 h
Setting: mean of 2 replicates
Baseline: plate mean
Direction: higher = more cells
Measurement: nuclei count
COc1cc2nc(N3CCN(C(=O)COc4c(OC)cccc4C(C)C)CC3)nc(N)c2cc1OC: -5.42 z-score
Cc1cc(/C=C/c2ccc3cc(N(C)C)ccc3[n+]2C)c(C)n1-c1ccccc1: -0.782 z-score and -3.58 z-score
CCC(C)(C)c1ccc(CC(C)CN2C[C@@H](C)O[C@@H](C)C2)cc1 (stereo partly shown): 1.02 z-score

Set 5
Target: Interferon regulatory factor 3, full length, phosphomimetic (IRF3, Homo sapiens, UniProt Q14653, residues 1-427, S386D/S396D/S398D/S402D/T404D/S405D)
Method: protein-binding microarray
Form: double-stranded DNA, one strand shown
Medium: in vitro
Tested at: 2540 nM top
Setting: 60-bp whole probe
Added: salmon DNA 0.4 mg/ml
Baseline: random background probes
Direction: higher = stronger binding
Measurement: fitted relative affinity
All sequences stand within: GCCTAGCAC … GTCTTGATTCGCTTGACGCTGCTG
Residues (chain): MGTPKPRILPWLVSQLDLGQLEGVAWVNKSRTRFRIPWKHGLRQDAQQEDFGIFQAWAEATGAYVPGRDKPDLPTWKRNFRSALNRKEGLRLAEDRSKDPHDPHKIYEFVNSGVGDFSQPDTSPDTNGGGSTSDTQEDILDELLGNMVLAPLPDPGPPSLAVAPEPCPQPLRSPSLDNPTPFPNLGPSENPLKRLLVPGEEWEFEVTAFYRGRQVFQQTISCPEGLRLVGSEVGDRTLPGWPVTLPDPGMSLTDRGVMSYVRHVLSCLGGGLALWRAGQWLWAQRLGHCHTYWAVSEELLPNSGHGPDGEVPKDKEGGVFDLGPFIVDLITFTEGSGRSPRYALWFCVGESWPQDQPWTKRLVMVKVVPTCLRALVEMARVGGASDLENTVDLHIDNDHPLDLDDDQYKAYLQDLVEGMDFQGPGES
TTCCTTATTGCTTCCTCTTTGTGCTAG: 1.77 z-score
TTAGATTTCGGGTATCGATTTGTGCTA: 2.06 z-score
TTAGGCTCCCTTTTCCTTTAGTGCTAG: 4.17 z-score
GACGGTATCGGTCCCGGGACGTGCTAG: 2.54 z-score
TTAGGTTTCAGTTTCGGTTAGTGCTAG: 8.6 z-score
TTAGAACTGACACTGGATTAGTGCTAG: -0.0577 z-score
TCAACCTTGAACTTCGGACTGTGCTAG: -0.372 z-score
ATGTATACACACTATAGTGAAGTGCTA: 0.297 z-score

Some of these lines once more (set 2):
Serine/threonine-protein kinase RIO1 (RIOK1, Homo sapiens, UniProt Q9BRS2); cell-free assay: 100%
Calcium/calmodulin-dependent protein kinase type 1D (CAMK1D, Homo sapiens, UniProt Q8IU85); cell-free assay: 95%
Serine/threonine-protein kinase 17A (STK17A, Homo sapiens, UniProt Q9UEE5); cell-free assay: 100%
